Published values of several laboratories.
Every numbered part comes from another study and shows a few of its results, in no order.

Sample 1 — technique: protein-binding microarray; molecule type: double-stranded DNA, one strand shown; matrix: in vitro; tested at: 0.8 µM; setting: whole 60-bp probe, no competitor; reading: higher = stronger binding
Target: Centromere-binding protein 1, full length, N-terminal tag (CBF1, Saccharomyces cerevisiae, UniProt P17106, residues 1-351)
UniProt P17106, sequence (whole entry, looked up): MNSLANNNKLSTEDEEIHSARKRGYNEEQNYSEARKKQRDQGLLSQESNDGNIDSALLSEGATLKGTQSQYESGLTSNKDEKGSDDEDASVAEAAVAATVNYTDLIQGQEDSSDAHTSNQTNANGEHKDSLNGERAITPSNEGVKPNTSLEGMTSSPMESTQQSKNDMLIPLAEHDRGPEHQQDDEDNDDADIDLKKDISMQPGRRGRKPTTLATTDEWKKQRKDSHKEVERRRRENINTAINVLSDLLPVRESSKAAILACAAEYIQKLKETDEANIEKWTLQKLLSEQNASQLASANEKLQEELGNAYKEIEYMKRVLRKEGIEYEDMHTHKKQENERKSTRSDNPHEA
`GAAGAACAATTTAGGCACGGGGAAATTCGATCGTAGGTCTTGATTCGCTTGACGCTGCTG` gave a fluorescence intensity of 629 a.u.
The fluorescence intensity of `CTAAATAAACCACGTCACGTCAAAATATCAGTTTTCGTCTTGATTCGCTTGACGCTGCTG` is reported as 643 a.u.
With `CTATCAATAGAATGCCACGTATATATGGACTTATTCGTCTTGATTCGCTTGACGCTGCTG` the fluorescence intensity was 527 a.u.
For `GAAATTTACTGTTATGGTGATGCTATGTTAGTGTAGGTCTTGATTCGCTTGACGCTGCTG`, the fluorescence intensity was 557 a.u.
`GAACTTGTTCCATTTAACGTGGATTTGACTTGCTAGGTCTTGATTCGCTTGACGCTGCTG` gave a fluorescence intensity of 500 a.u.

Sample 2 — technique: protein binding microarray; molecule type: double-stranded DNA, one strand shown; matrix: in vitro; tested at: not given; baseline: not given; reading: higher = stronger binding
Target: Histone acetyltransferase KAT6A, both winged helices, GST fusion (KAT6A, Homo sapiens, UniProt Q92794, residues 1-181)
Setting: 8-mer, flanks averaged, mean of 2 arrays, mostly near background
Residues (chain): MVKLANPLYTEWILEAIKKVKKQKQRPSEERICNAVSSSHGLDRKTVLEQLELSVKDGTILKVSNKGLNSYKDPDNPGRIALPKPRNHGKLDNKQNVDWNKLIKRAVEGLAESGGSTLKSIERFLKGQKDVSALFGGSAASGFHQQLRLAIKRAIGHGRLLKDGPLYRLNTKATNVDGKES
`GCATTAAA` gave an E-score of -0.0508.
The E-score of `TGTCACAA` is reported as 0.0246.
For `CGAAAATA`, the E-score was 0.106.
For `AGCTAAAA`, the E-score was 0.000365.
The E-score of `CCCTGGAG` is reported as -0.193.
For `CCATCTCC`, the E-score was -0.0927.

Sample 3 — technique: RNA Bind-n-Seq; molecule type: RNA; matrix: in vitro; tested at: 20 nM; setting: 6-mer, flanks averaged, single round; added: 150 mM LiCl; baseline: input library; reading: higher = stronger binding
Target: TAR DNA-binding protein 43, full length, His tag (TARDBP, Homo sapiens, UniProt Q13148, residues 1-414)
`AGCGCC` — result for “6-mer enrichment (R)”: 0.939.
Under “6-mer enrichment (R)”, `CGUAGA` is recorded as 0.924.
For `AGGACG`, “6-mer enrichment (R)” read 0.976.
`UUAGUC` — result for “6-mer enrichment (R)”: 0.928.
`UAGCUG` — result for “6-mer enrichment (R)”: 0.946.
`CGUCCU` — result for “6-mer enrichment (R)”: 0.9.

Single results of other studies
The fold induction of `PhoQ, residues 284 288 289 292 302 303 TASMAF` is reported as 2.2 (PhoP, residues 12 14 15 18 19 AWHSL (Escherichia coli, UniProt P23836); Sort-seq, item: YFP reporter; E. coli; PhoQ-PhoP variant library, added: 10 µM Mg2+; baseline: high Mg2+ state, higher = stronger signaling).

A few entries again (sample 3):
Under “6-mer enrichment (R)”, `CGUAGA` is recorded as 0.924.
For `AGGACG`, “6-mer enrichment (R)” read 0.976.
